# Assay results gathered from unrelated publications.
# A part holds a random share of what one study measured.

# Block 1 — method: protein-binding microarray; form: double-stranded DNA, one strand shown; medium: in vitro; tested at: 940 nM top; setting: 60-bp whole probe; together with: salmon DNA 0.4 mg/ml; reference: random background probes; direction: higher = stronger binding; shared flanks, not repeated: GCCTAGCAC … GTCTTGATTCGCTTGACGCTGCTG
# Target: Interferon regulatory factor 5, full length, phosphomimetic (IRF5, Homo sapiens, UniProt Q13568-2, residues 1-514, S451D/S453D/S456D/S462D)
Strand,fitted relative affinity
TTAGTTTTCATTATTGTGTCGTGCTAG,2.67 z-score
ACCCATTGAGATTTCCATTAGTGCTAG,0.579 z-score
GGTCCAACAAACAGATCCATGTGCTAG,0.126 z-score
GACTGACTGGGGTTTCGGGACGTGCTA,2.1 z-score
GACGGTCTCCTTTCCCTGACGTGCTAG,0.733 z-score
TTAGTACTGCTTCTCCTTTAGTGCTAG,0.669 z-score

# Block 2 — method: universal PBM; form: double-stranded DNA, one strand shown; medium: in vitro; tested at: 600 nM; direction: higher = stronger binding
# Target: Sal-like protein 4, full length isoform A (SALL4, Homo sapiens, UniProt Q9UJQ4, residues 1-1053)
# UniProt Q9UJQ4, sequence (whole entry, looked up): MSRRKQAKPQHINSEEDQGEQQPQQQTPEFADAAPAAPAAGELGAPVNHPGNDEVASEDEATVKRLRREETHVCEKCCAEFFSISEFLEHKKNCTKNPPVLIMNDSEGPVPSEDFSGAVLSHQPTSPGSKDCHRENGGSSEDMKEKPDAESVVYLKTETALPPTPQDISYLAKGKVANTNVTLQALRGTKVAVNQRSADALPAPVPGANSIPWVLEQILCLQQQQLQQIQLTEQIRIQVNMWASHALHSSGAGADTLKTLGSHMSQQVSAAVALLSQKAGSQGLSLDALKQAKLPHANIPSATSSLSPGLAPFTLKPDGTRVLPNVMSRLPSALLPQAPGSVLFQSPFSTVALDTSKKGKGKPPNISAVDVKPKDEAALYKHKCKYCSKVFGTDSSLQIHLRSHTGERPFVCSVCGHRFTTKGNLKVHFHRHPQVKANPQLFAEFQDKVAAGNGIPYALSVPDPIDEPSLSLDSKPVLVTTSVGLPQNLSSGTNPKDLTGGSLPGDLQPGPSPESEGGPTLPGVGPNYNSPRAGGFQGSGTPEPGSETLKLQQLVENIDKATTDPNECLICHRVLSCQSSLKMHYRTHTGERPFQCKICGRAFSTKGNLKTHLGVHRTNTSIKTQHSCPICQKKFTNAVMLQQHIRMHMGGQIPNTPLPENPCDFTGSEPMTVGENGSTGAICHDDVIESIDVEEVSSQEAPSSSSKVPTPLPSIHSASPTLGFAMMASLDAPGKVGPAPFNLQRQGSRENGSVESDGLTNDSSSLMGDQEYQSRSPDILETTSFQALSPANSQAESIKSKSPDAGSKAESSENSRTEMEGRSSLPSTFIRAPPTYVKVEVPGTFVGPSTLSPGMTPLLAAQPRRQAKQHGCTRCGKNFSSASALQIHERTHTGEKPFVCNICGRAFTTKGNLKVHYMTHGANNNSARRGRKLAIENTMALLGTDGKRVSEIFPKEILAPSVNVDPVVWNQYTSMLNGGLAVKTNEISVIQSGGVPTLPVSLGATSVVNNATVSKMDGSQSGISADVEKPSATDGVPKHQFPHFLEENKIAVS
# Setting: 8-mer, flanks averaged, mean of replicates
Strand,E-score
AGAGACAG,-0.0821
CCAGTAGG,-0.226
ACTTTTTC,0.138
CGTGGAAC,-0.149
CAGGTAAC,-0.0565
GCGGATCC,-0.401
AACTGTAG,0.0256
AACCTCGA,-0.00377
AGTTTCTA,0.138
GAGACTCC,-0.121
CTGGTCAC,-0.246
AGATTTGG,-0.00319

# Block 3 — method: RNAcompete; form: RNA; medium: in vitro; tested at: 20 nM; setting: 7-mer, probes averaged, single round; reference: mean of 7-mers; direction: higher = stronger binding
# Target: PABPC1L2, full length, GST fusion (mouse, UniProt A0ABA7IW68)
# Residues (chain): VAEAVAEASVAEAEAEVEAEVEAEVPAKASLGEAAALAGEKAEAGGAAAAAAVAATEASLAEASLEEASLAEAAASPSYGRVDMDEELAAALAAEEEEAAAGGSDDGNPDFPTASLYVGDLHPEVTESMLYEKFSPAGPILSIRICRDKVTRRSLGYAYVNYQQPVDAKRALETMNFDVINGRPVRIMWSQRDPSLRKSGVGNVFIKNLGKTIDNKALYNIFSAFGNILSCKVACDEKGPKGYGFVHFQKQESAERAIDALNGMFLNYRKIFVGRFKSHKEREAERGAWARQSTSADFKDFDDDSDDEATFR
Strand,7-mer Z-score
UAUCUGU,-0.32
ACGGGAC,0.26
GACGCGG,-0.0355
UCGCUUA,-0.36
UGACCAG,-0.0337
AUAUCAC,-0.124
AGGAUAG,0.0152

# Single results of other studies
Molecule,target,assay,system,setting,scale,endpoint,result
"PhoQ, residues 284 288 289 292 302 303 SCCLKL","PhoP, residues 12 14 15 18 19 GHCSL (Escherichia coli, UniProt P23836)","Sort-seq, measured: YFP reporter",E. coli,"PhoQ-PhoP variant library, together with: 10 µM Mg2+","reference: high Mg2+ state, higher = stronger signaling",fold induction,7.59

# A few entries again (block 1):
Strand,fitted relative affinity
ACCCATTGAGATTTCCATTAGTGCTAG,0.579 z-score
GACTGACTGGGGTTTCGGGACGTGCTA,2.1 z-score
TTAGTTTTCATTATTGTGTCGTGCTAG,2.67 z-score
